Assay results collected from several papers.
Lines come from different studies, so protocols differ.

SMILES | assay | test system | conditions | quantity | value
CNC(=O)c1cc(Oc2ccc(NC(=O)Nc3cc(C(C)(C)C)nn3-c3ccc4ncccc4c3)c(F)c2)ccn1 |  | patients | oral, dose not given, cycles 1 and 2, Medium AUC subgroup | patients with visual abnormalities | 29%
C=CC(=O)Nc1cc(Nc2nccc(-c3cn(C)c4ccccc34)n2)c(OC)cc1N(C)CCN(C)C | refers to: treatment-related grade ≥3 Pain | EGFR-mutant MET-altered NSCLC | oral, dose not given, all | patients with adverse events | 2%
FC(F)(F)c1ccc(CNc2ccc(Cc3c[nH]c4ncc(Cl)cc34)cn2)cn1 | refers to: aspartate aminotransferase increased | non-TGCT solid tumour patients | oral, 1000 mg/day, grade 3 or higher | patients with treatment-related adverse event | 4%
COc1cc(Nc2ncc3c(n2)-c2ccc(Cl)cc2C(c2c(F)cccc2OC)=NC3)ccc1C(=O)O | refers to: increased AST, all grades | cancer patients, phase 1/2 | oral, dose not given, added: pembrolizumab | patients with adverse event | 21%
COc1cc2nccc(Oc3ccc(NC(=O)c4cc5c(n(-c6ccccc6)c4=O)CCCC5=O)nc3)c2cc1OC |  | patients with relapsed/refractory AML | oral, 6 mg once daily | patients with drug-related serious TEAEs | 0%
Cc1cc(NC2CCN(C(=O)OC3CCN(C(=O)/C=C/CN(C)C)C3)CC2)n2ncc(C(C)C)c2n1 (stereo not drawn) | Phase I dose escalation CTCAE v4.0, refers to: urinary tract infection | patients with advanced solid tumours | dose not given, Total dosing any grade | patients with adverse event | 6%
CCOc1c([C@H](C)n2nc(C)c3c(N)ncnc32)cc(Cl)c(F)c1[C@@H]1CNC(=O)C1 | refers to: heart rate > 100 bpm | previously treated B-cell malignancy | oral, 20 mg once daily | patients with high heart rate | 5.9%
C[C@@H](c1ccc2nccn2c1)n1nnc2ncc(-c3cnn(C)c3)nc21 | refers to: treatment-related grade ≥3 Thrombocytopenia | EGFR-mutant MET-altered NSCLC | oral, dose not given, all | patients with adverse events | 1%
CNC(=O)c1ccc(-c2cnc3ncc(Cc4ccc5ncccc5c4)n3n2)cc1F | refers to: Diarrhea | hepatocellular carcinoma patients | oral, 600 mg twice daily, expansion cohort, grade 3-4 | patients with adverse event | 0%
O=C(Nc1nc2cccc(-c3ccc(CN4CCS(=O)(=O)CC4)cc3)n2n1)C1CC1 |  | rheumatoid arthritis patients | oral, 100 mg twice daily, 4 weeks, regardless of relatedness | patients with non-cardiac chest pain | 0%
C[C@@H](Nc1cc(F)cc(F)c1)c1cc(C(=O)N(C)C)cc2c(=O)cc(N3CCOCC3)oc12 | refers to: Hypersensitivity | advanced solid tumour patients | oral, dose not given, dose finding | patients discontinuing for AE | 1.6%
NC(=O)N1c2ccccc2C=Cc2ccccc21 |  | male patients | oral, dose not given, on-treatment adverse events | patients with Pruritus | 7%
Cc1cc(-c2nnc(N)nc2-c2ccc(F)cc2)cc(Cl)n1 | refers to: Rash | IO-naive colorectal cancer patients | oral, dose not given, treatment-related, grade 2 | patients with immune-mediated AE | 0%
COc1ccc([C@@H](O)c2cc(-c3ncnc4cc(N5CCOCC5)ccc34)c(F)cc2Cl)nn1 |  | locally advanced rectal cancer patients | 250 mg, drug-related adverse events, added: capecitabine and radiotherapy | patients with fatigue | 0%
C=CC(=O)NC1CCN(c2ncc3ncnc(Nc4ccc(Oc5ccc6c(c5)ncn6C)c(C)c4)c3n2)CC1 |  | male patients | oral, dose not given, on-treatment adverse events | patients with Nasopharyngitis | 6%
